Published values of several laboratories.

CO[C@H]1C[C@@H]2CC[C@@H](C)[C@@](O)(O2)C(=O)C(=O)N2CCCC[C@H]2C(=O)O[C@H]([C@H](C)C[C@@H]2CC[C@@H](OC(=O)NCCOCCOCCOCCOCCOCCOCCOCCOCCC(=O)N3CCc4cc(Cn5nc(-c6ccc7oc(N)nc7c6)c6c(N)ncnc65)ccc4C3)[C@H](OC)C2)C[C@@H](O)[C@H](C)/C=C(\C)[C@@H](O)[C@@H](OC)C(=O)[C@H](C)C[C@H](C)/C=C/C=C/C=C/1C — half-life (human patients, plasma; intravenous, 10 mg, cycle 1 day 1, weekly dosing, 1 h infusion, arithmetic mean): 5.9 h
O=C(O)CCC(=O)O.[2H]C([2H])([2H])Oc1cc(C)c2[nH]ccc2c1CN1CC[C@@H](C2CC2)C[C@H]1c1ccc(C(=O)O)cc1 — half-life (human, plasma; 200 mg once daily, day 10, multiple ascending dose, mean): 24.9 h
CC1(COc2ccc3c(c2)ncn3-c2ccc3cccc(N4CCC(N)CC4)c3n2)COC1 — half-life (human patients, recurrent/progressive HGG or DIPG, serum; oral, 100 mg/m^2, day 1, median): 9.7 h
COc1ncc(-c2nc3c(n2C(C)C)[C@H](c2ccc(Cl)cc2)N(c2cc(Cl)cn(C)c2=O)C3=O)c(OC)n1 — half-life (human, plasma; oral, 120 mg, C1D1, high-dose, median): 12.4 h
Cc1nc(-c2ccc(OCC(C)C)c(C#N)c2)sc1C(=O)O — half-life (human, plasma; oral, 40 mg once daily, added: verinurad 5 mg): 6.35 h
C[C@H](Oc1ccc(Br)cc1-c1ccon1)C(=O)O — half-life (healthy male humans, plasma; oral, 400 mg twice daily, day 10): 5.1 h
C=CC(=O)N(C)CCOc1c(N)ncnc1-c1cc(F)cc(NC(=O)c2ccc(C3CC3)cc2F)c1C — half-life (human, whole blood; oral, 15 mg, single ascending dose, median): 0.56 h
O=C(COc1ccc(Cl)cc1)NC12CC(c3nnc([C@H]4C[C@@H](OC(F)(F)F)C4)o3)(C1)C2 — half-life (healthy human volunteers fasted, plasma; oral, 100 mg single dose, geometric mean): 37.8 h
CC(C)(Sc1ccncc1-c1ccc(C#N)c2ccccc12)C(=O)O — half-life (human, plasma; oral, 2.5 mg once daily, geometric mean, added: febuxostat 0 mg): 15.9 h

Repeated from above:
C[C@H](Oc1ccc(Br)cc1-c1ccon1)C(=O)O — half-life (healthy male humans, plasma; oral, 400 mg twice daily, day 10): 5.1 h
